Measurements pooled from the literature.
Every numbered part comes from another study and shows a few of its results, in no order.
UniProt Q7L7X3, sequence (whole entry, looked up): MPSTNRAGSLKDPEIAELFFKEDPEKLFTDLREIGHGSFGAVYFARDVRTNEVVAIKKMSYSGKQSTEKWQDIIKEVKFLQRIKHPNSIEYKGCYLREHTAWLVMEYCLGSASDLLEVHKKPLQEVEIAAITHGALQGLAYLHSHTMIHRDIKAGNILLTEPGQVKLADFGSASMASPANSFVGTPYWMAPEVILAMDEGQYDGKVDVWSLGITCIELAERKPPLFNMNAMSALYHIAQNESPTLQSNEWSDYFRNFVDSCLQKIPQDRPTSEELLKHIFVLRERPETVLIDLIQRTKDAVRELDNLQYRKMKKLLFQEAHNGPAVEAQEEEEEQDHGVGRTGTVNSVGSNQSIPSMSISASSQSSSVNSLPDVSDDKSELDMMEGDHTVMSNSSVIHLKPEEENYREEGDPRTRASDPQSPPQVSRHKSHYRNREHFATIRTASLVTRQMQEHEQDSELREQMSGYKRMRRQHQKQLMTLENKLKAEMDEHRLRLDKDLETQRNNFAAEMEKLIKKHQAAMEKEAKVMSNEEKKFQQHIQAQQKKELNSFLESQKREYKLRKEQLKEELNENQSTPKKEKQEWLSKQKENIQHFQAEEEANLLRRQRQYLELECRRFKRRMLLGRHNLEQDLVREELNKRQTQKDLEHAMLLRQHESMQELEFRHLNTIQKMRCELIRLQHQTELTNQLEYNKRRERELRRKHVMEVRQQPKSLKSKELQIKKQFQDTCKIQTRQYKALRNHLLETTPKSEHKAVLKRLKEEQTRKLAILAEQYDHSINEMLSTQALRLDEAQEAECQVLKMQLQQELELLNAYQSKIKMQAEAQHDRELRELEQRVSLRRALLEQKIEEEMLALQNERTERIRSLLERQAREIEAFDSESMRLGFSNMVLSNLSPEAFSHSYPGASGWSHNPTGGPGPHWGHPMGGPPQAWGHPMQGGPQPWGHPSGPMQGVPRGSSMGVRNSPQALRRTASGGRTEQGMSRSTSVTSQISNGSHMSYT
UniProt Q9Y4K4, sequence (whole entry, looked up): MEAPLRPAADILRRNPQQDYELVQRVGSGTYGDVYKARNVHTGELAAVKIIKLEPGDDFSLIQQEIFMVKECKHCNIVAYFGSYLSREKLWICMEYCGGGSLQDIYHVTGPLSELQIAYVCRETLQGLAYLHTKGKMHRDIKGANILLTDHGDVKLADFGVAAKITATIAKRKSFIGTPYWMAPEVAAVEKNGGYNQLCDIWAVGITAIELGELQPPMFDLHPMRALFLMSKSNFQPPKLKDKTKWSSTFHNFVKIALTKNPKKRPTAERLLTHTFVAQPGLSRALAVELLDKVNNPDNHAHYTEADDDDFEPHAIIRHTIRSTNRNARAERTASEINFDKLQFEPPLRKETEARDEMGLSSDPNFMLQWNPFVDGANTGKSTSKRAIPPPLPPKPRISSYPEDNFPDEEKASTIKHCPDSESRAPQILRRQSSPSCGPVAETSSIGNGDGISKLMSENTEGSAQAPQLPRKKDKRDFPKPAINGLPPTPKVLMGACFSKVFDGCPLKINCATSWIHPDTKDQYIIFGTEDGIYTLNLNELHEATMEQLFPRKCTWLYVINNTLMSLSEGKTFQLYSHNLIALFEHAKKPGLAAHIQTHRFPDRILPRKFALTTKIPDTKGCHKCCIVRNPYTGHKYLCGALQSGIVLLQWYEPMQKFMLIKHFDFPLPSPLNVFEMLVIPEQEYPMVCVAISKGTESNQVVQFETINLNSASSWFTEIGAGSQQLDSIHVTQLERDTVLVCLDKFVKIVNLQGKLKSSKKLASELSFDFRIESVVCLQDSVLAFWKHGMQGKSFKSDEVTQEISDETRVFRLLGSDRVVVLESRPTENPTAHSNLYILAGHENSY
UniProt Q6ZWH5, sequence (whole entry, looked up): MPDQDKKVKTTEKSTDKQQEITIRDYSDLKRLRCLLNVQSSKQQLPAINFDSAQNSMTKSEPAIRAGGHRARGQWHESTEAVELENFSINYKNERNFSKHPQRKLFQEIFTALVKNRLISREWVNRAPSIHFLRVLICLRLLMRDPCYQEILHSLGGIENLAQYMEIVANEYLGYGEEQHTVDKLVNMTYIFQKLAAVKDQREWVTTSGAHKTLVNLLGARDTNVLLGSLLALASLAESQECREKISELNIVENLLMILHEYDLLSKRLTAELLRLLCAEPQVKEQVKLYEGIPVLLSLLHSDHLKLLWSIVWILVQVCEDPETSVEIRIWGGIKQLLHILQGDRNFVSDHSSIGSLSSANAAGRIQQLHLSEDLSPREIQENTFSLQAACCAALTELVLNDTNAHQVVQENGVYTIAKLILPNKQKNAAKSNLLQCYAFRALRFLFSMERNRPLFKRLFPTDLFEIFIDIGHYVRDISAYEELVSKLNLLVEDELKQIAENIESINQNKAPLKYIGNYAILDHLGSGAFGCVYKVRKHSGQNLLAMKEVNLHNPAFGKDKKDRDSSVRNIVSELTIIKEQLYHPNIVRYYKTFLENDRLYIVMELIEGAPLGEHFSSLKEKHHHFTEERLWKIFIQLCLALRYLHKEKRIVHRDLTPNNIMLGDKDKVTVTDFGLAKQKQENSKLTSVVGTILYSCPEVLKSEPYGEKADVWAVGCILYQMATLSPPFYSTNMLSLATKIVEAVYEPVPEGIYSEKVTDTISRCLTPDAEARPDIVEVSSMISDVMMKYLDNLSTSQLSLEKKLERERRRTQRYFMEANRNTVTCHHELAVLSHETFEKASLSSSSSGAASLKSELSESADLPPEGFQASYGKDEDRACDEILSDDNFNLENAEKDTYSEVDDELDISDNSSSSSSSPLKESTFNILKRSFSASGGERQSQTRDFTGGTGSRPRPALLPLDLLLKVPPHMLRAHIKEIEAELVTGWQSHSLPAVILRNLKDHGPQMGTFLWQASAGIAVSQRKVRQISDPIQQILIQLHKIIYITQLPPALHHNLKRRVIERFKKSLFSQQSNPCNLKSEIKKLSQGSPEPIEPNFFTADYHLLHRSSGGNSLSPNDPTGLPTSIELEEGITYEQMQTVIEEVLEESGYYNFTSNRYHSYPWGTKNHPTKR
UniProt Q96BR1, sequence (whole entry, looked up): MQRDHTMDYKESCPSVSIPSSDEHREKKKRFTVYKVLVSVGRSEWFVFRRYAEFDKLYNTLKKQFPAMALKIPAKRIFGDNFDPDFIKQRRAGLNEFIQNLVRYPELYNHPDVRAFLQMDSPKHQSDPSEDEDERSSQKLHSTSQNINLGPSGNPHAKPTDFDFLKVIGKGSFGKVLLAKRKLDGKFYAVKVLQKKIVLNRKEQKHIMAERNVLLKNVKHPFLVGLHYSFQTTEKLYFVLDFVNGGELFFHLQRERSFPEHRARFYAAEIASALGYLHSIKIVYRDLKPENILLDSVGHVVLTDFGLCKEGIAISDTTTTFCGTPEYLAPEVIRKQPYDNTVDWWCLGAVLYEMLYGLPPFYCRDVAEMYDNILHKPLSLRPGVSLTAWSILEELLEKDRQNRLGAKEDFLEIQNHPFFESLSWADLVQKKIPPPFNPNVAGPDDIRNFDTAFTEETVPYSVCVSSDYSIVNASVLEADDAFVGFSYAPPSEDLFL

Block 1
Target: Homeodomain-interacting protein kinase 1 (HIPK1, Homo sapiens, UniProt Q86Z02)
UniProt Q86Z02, sequence (whole entry, looked up): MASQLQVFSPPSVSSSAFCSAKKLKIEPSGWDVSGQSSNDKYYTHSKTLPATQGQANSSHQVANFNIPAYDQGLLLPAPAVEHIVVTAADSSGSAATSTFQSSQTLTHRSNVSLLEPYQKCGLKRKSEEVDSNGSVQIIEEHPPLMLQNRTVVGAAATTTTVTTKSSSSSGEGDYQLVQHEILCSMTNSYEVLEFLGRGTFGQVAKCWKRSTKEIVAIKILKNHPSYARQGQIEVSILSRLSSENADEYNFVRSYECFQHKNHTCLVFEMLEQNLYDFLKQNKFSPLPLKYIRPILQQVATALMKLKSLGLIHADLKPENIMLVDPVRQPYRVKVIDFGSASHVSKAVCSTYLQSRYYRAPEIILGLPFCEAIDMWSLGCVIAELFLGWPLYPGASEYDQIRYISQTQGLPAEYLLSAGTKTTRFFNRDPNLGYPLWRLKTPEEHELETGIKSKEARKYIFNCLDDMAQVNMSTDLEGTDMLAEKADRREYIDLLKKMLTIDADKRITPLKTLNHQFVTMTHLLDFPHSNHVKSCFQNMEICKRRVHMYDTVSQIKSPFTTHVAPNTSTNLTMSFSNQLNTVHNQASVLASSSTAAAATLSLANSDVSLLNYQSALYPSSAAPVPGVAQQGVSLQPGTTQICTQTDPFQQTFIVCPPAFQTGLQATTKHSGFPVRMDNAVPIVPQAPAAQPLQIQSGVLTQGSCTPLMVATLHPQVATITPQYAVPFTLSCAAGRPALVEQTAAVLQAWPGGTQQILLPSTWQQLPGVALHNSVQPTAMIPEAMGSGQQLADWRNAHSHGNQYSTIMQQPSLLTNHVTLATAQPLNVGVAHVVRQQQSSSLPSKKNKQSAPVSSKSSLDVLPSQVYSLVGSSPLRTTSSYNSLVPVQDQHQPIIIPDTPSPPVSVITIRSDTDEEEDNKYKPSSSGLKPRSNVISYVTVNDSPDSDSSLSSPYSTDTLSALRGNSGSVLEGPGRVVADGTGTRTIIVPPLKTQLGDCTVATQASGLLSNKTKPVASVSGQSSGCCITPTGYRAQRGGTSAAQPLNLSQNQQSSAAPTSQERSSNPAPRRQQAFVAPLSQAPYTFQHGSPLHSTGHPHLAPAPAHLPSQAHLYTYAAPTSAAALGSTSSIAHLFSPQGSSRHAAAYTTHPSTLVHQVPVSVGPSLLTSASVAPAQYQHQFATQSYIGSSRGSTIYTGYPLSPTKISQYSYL
Effect on: enzyme activity
Action: inhibitor
Concentration: 0.5 µM
Baseline: control
SMILES	remaining activity
CO[C@H]1C[C@@H]2CC[C@@H](C)[C@@](O)(O2)C(=O)C(=O)N2CCCC[C@H]2C(=O)O[C@H]([C@H](C)C[C@@H]2CC[C@@H](O)[C@H](OC)C2)CC(=O)[C@H](C)/C=C(\C)[C@@H](O)[C@@H](OC)C(=O)[C@H](C)C[C@H](C)/C=C/C=C/C=C/1C	99.1%
CC(C)[C@H](CO)Nc1nc(Nc2cc(N)cc(Cl)c2)c2ncn(C(C)C)c2n1	99.2%
Cc1ccc(NC(=O)c2ccc(CN3CCN(C)CC3)cc2)cc1Nc1nc(-c2cccnc2)cs1	97.4%
Oc1ccc(-c2nc(-c3ccncc3)c(-c3ccc(F)cc3)[nH]2)cc1	98.2%
Cn1sc(=O)n(Cc2ccccc2)c1=O	92.3%
O=C(Nc1cccc(Nc2cc(Nc3cccc(C(F)(F)F)c3)ncn2)c1)C1CC1	99.7%
COc1cc2ncnc(Nc3ccc(Oc4ccccc4)cc3)c2cc1OC	102%

Block 2
SMILES: CN1CCN(c2cnc3c(C4CCN(C(=O)c5ccc(OC(F)(F)F)cc5N)CC4)ncnc3c2)CC1
Effect on: cell-free assay
Technique: competition with immobilised ligand
Concentration: 1 µM
target	remaining binding
LATS2 (Homo sapiens, UniProt Q9NRM7)	100%
KIT (Homo sapiens, UniProt P10721, D816V)	100%
SGK3 (Homo sapiens, UniProt Q96BR1)	100%
CLK4 (Homo sapiens, UniProt Q9HAZ1)	98%
EGFR (Homo sapiens, UniProt P00533, G719S)	100%
SBK3 (Homo sapiens, UniProt P0C264)	72%
FGFR4 (Homo sapiens, UniProt P22455)	100%
TAOK1 (Homo sapiens, UniProt Q7L7X3)	100%
ERBB3 (Homo sapiens, UniProt P21860)	84%
NEK10 (Homo sapiens, UniProt Q6ZWH5)	100%
MYLK (Homo sapiens, UniProt Q15746)	88%
PIK3C2B (Homo sapiens, UniProt O00750)	98%
MAP4K5 (Homo sapiens, UniProt Q9Y4K4)	99%

Block 3
Target: PABPC1L2, full length, GST fusion (mouse, UniProt A0ABA7IW68)
Technique: RNAcompete
Form: RNA
Matrix: in vitro
Concentration: 20 nM
Notes: 7-mer, probes averaged, single round
Baseline: mean of 7-mers
Reading: higher = stronger binding
Target sequence (chain): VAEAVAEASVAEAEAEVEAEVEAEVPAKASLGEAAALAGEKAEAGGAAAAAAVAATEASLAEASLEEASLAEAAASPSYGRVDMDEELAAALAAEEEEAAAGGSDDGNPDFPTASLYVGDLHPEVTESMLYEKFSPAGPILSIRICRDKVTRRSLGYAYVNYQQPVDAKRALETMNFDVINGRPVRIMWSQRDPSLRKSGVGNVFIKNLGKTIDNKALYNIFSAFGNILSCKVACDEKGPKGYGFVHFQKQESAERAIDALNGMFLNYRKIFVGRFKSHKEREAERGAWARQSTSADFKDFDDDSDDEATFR
Strand	7-mer Z-score
GCCAGCU	-0.175
CCGGCAC	-0.389
GUUGCGC	-0.235
AGAUCCG	-0.293
UUGGCCC	-0.291
ACUCCGU	-0.345
AUUCUUA	-0.188
UAAUACA	0.0968

Block 4
Target: Centromere-binding protein 1, full length, N-terminal tag (CBF1, Saccharomyces cerevisiae, UniProt P17106, residues 1-351)
UniProt P17106, sequence (whole entry, looked up): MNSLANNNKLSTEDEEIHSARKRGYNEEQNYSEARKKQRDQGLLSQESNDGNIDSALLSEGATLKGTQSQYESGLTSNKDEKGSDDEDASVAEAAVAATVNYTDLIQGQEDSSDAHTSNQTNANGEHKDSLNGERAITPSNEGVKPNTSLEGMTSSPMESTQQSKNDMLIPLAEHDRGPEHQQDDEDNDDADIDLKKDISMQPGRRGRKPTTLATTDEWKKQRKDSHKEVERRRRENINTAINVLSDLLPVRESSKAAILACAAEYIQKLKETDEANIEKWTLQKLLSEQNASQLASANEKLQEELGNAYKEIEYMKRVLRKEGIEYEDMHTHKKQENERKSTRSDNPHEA
Technique: protein-binding microarray
Form: double-stranded DNA, one strand shown
Matrix: in vitro
Concentration: 0.8 µM
Notes: whole 60-bp probe, no competitor
Reading: higher = stronger binding
Strand	fluorescence intensity [a.u.]
CTATTCAGCATTGGTCACGCTAAAATATACGTTTTCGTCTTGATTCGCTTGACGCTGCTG	806
GAATATGTAATGGGTCATGATAAATTCCGAGATTAGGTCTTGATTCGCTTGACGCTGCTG	537
CTAGATTATTTGGGTAAGCTGATGGTATTCTCCTTCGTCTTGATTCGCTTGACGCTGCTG	518
CTACTTTTTTTCAAATGTGTGACACACCCATACTTCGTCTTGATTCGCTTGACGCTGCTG	614
GAAACGTATGTTAGTCACACGATTATATCCAGGTAGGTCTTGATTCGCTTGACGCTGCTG	673
CTATGGGATAACCGTCACGTGACTCTCACTAGGTTCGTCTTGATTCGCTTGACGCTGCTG	47300
CCTAACTACTATATTCACATGGCATAGCTTCGTACAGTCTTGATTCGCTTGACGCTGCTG	607
GAAGGTTTCCTTCATCTCCTGTATATGGCCCTTTAGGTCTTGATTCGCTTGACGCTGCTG	519
